# Results of several laboratories.
# A part holds a random share of what one study measured.
# UniProt Q9Y6M4, sequence (whole entry, looked up): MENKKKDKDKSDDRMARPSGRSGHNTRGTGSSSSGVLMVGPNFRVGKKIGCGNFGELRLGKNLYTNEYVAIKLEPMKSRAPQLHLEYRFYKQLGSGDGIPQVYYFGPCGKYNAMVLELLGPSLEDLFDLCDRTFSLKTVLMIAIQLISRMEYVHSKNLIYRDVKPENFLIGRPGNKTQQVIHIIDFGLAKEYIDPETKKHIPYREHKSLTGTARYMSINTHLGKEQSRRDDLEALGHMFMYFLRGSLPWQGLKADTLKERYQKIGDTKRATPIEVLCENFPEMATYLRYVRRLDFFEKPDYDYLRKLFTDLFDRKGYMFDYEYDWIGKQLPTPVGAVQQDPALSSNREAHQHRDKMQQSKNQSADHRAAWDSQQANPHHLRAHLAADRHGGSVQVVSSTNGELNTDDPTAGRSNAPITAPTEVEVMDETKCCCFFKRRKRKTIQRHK
# UniProt Q8IYT8, sequence (whole entry, looked up): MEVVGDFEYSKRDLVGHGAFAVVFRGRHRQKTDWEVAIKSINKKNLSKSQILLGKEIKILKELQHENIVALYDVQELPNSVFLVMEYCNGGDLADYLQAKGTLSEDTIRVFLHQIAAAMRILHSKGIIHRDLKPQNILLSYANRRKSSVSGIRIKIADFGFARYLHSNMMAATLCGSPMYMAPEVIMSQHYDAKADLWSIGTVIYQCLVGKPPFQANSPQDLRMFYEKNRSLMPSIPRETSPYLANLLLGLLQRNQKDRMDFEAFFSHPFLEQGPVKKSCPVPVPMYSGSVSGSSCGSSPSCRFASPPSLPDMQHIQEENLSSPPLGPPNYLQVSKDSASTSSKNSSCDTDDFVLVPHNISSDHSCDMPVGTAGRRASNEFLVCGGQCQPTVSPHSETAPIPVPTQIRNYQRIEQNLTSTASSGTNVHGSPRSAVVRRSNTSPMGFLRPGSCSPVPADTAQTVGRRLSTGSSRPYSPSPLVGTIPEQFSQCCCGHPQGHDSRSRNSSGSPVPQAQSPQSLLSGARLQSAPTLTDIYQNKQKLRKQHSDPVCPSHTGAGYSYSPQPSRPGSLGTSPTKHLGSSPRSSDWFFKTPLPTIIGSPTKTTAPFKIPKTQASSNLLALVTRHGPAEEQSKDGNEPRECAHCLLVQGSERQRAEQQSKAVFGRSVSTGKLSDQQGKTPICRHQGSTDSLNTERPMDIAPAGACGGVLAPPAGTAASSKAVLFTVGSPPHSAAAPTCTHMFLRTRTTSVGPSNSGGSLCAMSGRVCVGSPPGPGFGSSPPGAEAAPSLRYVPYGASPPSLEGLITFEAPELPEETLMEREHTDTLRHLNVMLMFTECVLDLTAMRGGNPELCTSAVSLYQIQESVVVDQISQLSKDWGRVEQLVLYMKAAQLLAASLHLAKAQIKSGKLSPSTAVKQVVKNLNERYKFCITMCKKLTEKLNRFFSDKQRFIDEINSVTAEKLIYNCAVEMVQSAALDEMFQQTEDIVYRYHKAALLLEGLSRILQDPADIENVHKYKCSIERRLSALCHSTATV
# UniProt P36896, sequence (whole entry, looked up): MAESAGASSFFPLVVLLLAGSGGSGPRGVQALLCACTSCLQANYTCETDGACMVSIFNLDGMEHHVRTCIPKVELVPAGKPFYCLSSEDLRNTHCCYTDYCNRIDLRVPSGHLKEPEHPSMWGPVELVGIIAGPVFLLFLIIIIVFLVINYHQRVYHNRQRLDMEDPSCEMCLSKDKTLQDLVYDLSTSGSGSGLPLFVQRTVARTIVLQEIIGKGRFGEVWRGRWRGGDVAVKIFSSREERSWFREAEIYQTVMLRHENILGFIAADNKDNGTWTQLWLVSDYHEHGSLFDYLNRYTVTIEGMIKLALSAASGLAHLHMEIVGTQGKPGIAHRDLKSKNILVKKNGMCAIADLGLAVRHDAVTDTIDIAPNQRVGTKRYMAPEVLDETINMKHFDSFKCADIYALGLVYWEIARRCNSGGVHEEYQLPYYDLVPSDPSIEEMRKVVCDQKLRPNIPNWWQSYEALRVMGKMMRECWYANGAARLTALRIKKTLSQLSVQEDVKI
# UniProt P29320, sequence (whole entry, looked up): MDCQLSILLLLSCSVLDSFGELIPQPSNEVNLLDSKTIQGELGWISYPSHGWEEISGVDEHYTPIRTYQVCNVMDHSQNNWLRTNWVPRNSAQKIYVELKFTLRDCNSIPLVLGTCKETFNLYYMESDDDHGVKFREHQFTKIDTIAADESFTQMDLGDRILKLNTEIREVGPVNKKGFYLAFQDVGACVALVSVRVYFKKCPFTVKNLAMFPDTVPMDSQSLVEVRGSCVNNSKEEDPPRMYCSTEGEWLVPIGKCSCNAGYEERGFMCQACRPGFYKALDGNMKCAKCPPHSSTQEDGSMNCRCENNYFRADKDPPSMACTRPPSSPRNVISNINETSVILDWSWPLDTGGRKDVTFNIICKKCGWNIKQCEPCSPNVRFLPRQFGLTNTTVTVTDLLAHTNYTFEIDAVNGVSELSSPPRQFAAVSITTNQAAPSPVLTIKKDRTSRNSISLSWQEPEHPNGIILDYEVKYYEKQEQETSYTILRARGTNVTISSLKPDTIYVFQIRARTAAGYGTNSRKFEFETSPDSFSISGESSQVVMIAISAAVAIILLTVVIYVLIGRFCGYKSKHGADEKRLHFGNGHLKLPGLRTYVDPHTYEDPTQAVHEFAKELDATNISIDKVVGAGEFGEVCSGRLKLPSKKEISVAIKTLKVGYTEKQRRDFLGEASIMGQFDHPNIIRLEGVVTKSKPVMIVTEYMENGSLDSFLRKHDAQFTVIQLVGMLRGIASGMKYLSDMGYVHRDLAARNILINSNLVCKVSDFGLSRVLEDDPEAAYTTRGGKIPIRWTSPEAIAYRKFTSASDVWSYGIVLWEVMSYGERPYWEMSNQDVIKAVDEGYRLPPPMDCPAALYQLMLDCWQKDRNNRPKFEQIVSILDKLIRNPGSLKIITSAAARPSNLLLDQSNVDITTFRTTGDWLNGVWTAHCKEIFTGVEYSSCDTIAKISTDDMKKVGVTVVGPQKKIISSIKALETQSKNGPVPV
# UniProt Q02763, sequence (whole entry, looked up): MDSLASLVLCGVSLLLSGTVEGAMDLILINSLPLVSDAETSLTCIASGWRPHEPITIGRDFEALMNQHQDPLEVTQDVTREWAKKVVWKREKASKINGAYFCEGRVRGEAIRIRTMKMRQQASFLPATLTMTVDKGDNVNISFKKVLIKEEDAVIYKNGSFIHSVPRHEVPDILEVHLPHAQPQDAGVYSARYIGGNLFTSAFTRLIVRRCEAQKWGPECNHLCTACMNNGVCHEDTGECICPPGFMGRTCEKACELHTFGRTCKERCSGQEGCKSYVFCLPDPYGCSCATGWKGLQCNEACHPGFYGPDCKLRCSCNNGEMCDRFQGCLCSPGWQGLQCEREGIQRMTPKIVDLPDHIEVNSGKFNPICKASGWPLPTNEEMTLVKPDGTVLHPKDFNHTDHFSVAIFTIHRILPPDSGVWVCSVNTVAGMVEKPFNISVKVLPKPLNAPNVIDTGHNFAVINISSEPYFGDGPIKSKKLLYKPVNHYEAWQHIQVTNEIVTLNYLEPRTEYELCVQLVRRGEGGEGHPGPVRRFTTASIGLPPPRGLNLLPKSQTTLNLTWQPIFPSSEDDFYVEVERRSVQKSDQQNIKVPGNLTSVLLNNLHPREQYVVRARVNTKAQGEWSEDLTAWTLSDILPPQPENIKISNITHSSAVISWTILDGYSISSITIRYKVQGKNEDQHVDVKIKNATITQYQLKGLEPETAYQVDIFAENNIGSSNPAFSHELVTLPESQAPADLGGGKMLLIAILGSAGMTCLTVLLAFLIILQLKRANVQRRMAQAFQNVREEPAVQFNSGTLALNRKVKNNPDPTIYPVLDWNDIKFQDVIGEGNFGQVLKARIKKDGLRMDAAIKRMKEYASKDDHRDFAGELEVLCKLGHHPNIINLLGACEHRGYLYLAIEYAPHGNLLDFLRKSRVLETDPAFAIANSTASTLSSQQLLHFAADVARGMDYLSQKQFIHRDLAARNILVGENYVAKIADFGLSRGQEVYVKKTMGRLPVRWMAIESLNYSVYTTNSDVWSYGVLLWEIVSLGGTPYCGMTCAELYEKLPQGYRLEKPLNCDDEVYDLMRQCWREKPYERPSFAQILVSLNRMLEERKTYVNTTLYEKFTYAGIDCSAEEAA

# Study 1
# Cell line: HEK-293T-ACE2-TMPRSS2
# Method: cell count
# Tested at: 10 µM
Structure (SMILES),viability [%]
CC(C)N(Cc1ccccc1)C(=O)Cn1ncc(Br)c(Br)c1=O,66
c1cc(OCCn2ccnc2)cc(-c2ccnc3[nH]ccc23)c1,75
Cc1ccccc1NC(=O)N1c2ccccc2CC1c1noc(C2CCOCC2)n1 (stereo not drawn),391
CCCCn1c(N)c(C#N)c2nc3ccccc3nc21,67
COc1ccc(CN2C[C@@H](CO)[C@H](c3nc(C)no3)C2)cc1OC,112
COc1ccc(F)c(-c2ccccc2OC(C)C(N)=O)c1 (stereo not drawn),65
CC(C)(C)NC(=O)NC(=O)Cn1ncc(Cl)c(Cl)c1=O,73
O=C(COc1cccnc1)N1CCCC2(CCNC2)C1 (stereo not drawn),76

# Study 2
# SMILES: O=C1NC(=O)c2c1c1c3ccccc3n3c1c1c2c2ccccc2n1[C@H]1CC[C@@H]3O1
# Observed: enzyme activity
# Mode: inhibitor
# Tested at: 0.5 µM
# Baseline: control
target,remaining activity [%]
"TEK (Homo sapiens, UniProt Q02763)",94.1
"CSNK1G3 (Homo sapiens, UniProt Q9Y6M4)",108
"ULK2 (Homo sapiens, UniProt Q8IYT8)",89.1
"ACVR1B (Homo sapiens, UniProt P36896)",113
"EPHA3 (Homo sapiens, UniProt P29320)",96.5
"NEK1 (Homo sapiens, UniProt Q96PY6)",50.9
"JAK3 (Homo sapiens, UniProt P52333)",1.87

# Other studies, line by line
# pknB: Serine/threonine-protein kinase PknB (pknB, Mycobacterium tuberculosis, UniProt P9WI81)
# UniProt P9WI81, sequence (whole entry, looked up): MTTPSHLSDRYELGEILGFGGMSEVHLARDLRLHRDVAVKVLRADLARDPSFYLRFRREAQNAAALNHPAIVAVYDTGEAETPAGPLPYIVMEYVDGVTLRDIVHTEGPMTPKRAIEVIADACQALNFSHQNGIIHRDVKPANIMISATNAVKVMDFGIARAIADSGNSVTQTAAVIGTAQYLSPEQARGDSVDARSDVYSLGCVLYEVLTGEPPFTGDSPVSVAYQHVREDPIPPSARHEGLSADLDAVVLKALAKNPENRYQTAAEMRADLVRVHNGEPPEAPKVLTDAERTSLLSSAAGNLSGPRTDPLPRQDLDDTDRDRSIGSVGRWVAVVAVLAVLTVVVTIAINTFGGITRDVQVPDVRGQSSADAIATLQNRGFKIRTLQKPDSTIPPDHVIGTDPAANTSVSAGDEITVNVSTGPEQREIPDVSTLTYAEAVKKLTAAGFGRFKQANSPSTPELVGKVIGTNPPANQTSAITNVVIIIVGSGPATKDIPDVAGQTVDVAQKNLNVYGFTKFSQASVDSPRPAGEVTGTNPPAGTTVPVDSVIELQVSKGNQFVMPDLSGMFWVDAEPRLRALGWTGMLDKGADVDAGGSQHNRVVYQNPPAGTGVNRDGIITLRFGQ
Compound,target or system,assay,test system,setting,measurement,result
CCC(=O)N[C@H]1CC[C@@H](C(=O)N(C)c2ccc(-c3nc4ccccc4o3)cc2)C1,pknB,"cell-free assay, competition with immobilised ligand",,1 µM,remaining binding,86%
O=C1CCC(N2Cc3c(ccc4c3OCC43CCN(Cc4ccccc4)CC3)C2=O)C(=O)N1 (stereo not drawn),,,Caco-2,"10 µM, 2 h",efflux ratio,1.11
C[C@H](c1ccc(F)cc1)N(Cc1cccc(C(=O)O)c1)C(=O)c1cnc2ccccc2c1,pknB,"cell-free assay, competition with immobilised ligand",,1 µM,remaining binding,94%

# For quick reference, copied from above (study 1):
Structure (SMILES),viability [%]
c1cc(OCCn2ccnc2)cc(-c2ccnc3[nH]ccc23)c1,75
Cc1ccccc1NC(=O)N1c2ccccc2CC1c1noc(C2CCOCC2)n1 (stereo not drawn),391
